{"data": "Measured values gathered from unrelated publications", "note": "Each line is one published result; not all experiments were run side by side. ± marks the error that the study gave."}
{"Molecule": "TITSGWTFGAGAALQ", "target or system": "human CD4 T cells", "test": "AIM", "system": "peptide", "endpoint": "responding donors", "value": "9%"}
{"Molecule": "COC(=O)[C@@H](Cc1ccc(O)c(O)c1)OC(=O)/C=C/c1ccc(O)c(O)c1", "target or system": "Replicase polyprotein 1ab, main protease (rep, Severe acute respiratory syndrome coronavirus 2, UniProt P0DTD1)", "test": "reporter gene (Gaussia luciferase), inhibitor", "system": "HEK293T", "conditions": "20 µM", "endpoint": "inhibition", "value": "0.485%"}
{"Molecule": "ARDLICAQKFNGLTV", "target or system": "human CD4 T cells", "test": "AIM", "system": "peptide", "endpoint": "responding donors", "value": "8%"}
{"Molecule": "Nc1ncnc2c([C@@H]3N[C@H](CO)[C@@H](O)[C@H]3O)c[nH]c12", "target or system": "Marburg virus", "test": "viral replication, antibody staining", "system": "HeLa, Musoke", "conditions": "50 µM, 12 h", "endpoint": "infected cells", "value": "0.9%"}
{"Molecule": "CC[C@H](C)[C@H](NC(=O)[C@H](CC(C)C)NC(=O)[C@H](Cc1c[nH]c2ccccc12)NC(=O)[C@H](CCC(N)=O)NC(=O)[C@@H](NC(=O)[C@H](Cc1ccccc1)NC(=O)[C@H](C)NC(=O)[C@H](CCCCNC(=O)COCCOCCNC(=O)COCCOCCNC(=O)CC[C@H](NC(=O)CCCCCCCCCCCCCCCCCCC(=O)O)C(=O)O)NC(=O)[C@H](CCC(N)=O)NC(=O)[C@H](C)NC(=O)[C@@H](NC(=O)[C@H](CCCCN)NC(=O)[C@H](CC(=O)O)NC(=O)[C@H](CC(C)C)NC(=O)C(C)(C)NC(=O)[C@@H](NC(=O)[C@H](CO)NC(=O)[C@H](Cc1ccc(O)cc1)NC(=O)[C@H](CC(=O)O)NC(=O)[C@H](CO)NC(=O)[C@@H](NC(=O)[C@H](Cc1ccccc1)NC(=O)[C@@H](NC(=O)CNC(=O)[C@H](CCC(=O)O)NC(=O)C(C)(C)NC(=O)[C@@H](N)Cc1ccc(O)cc1)[C@@H](C)O)[C@@H](C)O)[C@@H](C)CC)[C@@H](C)CC)C(C)C)C(=O)N[C@@H](C)C(=O)NCC(=O)NCC(=O)N1CCC[C@H]1C(=O)N[C@@H](CO)C(=O)N[C@@H](CO)C(=O)NCC(=O)N[C@@H](C)C(=O)N1CCC[C@H]1C(=O)N1CCC[C@H]1C(=O)N1CCC[C@H]1C(=O)N[C@@H](CO)C(N)=O", "system": "healthy subjects, single ascending dose", "conditions": "0.5 mg, day 29", "endpoint": "serum ALT", "value": "21.3 ± 17.6 U/L"}
